# Measured values collected from several papers.
# Each line is one published result; not all experiments were run side by side. ± gives the spread as reported.
Molecule,test,test system,setting,scale,measurement,value
Cn1c(-c2ccc(C(N)=O)cc2F)nnc1C(C)(C)Oc1c(F)cc(Cl)cc1F,,"young Japanese subjects, plasma","oral, 50 mg single dose, day 1",,AUC(0-inf) range,5320 to 11600 ng·h/mL
Cc1cccc(C)c1OCC(=O)N[C@@H](Cc1ccccc1)[C@@H](O)C[C@H](Cc1ccccc1)NC(=O)[C@H](C(C)C)N1CCCNC1=O,USP paddle apparatus,Tween in phosphate buffer,"concentration not given, 5 min, pH 6.8, 37 °C",,amount dissolved,1.56%
CS(=O)(=O)n1cc2c(n1)CN([C@H]1CO[C@H](c3cc(F)ccc3F)[C@@H](N)C1)C2,,"healthy male human, plasma","oral, 1.5 mg, fasted single dose",,AUC(0-last),1.3 µM·h
O=S(=O)(O)Oc1cccc(O)c1O,,"human, fasted baseline, cerebrospinal fluid",,,mean concentration,3.8 nM
CC(C)(O)CNc1nc(Nc2ccnc(C(F)(F)F)c2)nc(-c2cccc(C(F)(F)F)n2)n1,,human patients,"oral, 100 mg once daily, cycle 1 days 14 and 21, together with: induction chemotherapy",,mean Cmax,8820 ng/mL
CC(C)[C@H](NC(=O)[C@@H]1CCCN1C(=O)[C@H](CCCNC(=N)N)NC(=O)[C@H](CS)NC(=O)[C@H](Cc1c[nH]c2ccccc12)NC(=O)[C@H](CCCNC(=N)N)NC(=O)[C@@H](Cc1ccccc1)NC(=O)[C@H](Cc1c[nH]cn1)NC(=O)[C@H](CCC(=O)O)NC(=O)[C@H](CS)NC(=O)[C@H](CS)NC(=O)[C@H](CCCCN)NC(=O)[C@@H]1CC(=O)N[C@@H](CCCNC(=N)N)C(=O)N[C@@H]([C@@H](C)O)C(=O)N[C@@H](CC(=O)O)C(=O)N[C@H](Cc2ccc(O)cc2)C(=O)N1)C(N)=O [technetium-99m labelled],,"C57 mouse, female, B16/F1 melanoma","intravenous, 2 h, together with: NDP-MSH 10 µg co-injected",relative to: tumour over liver,uptake ratio,1.36
CNC(=O)c1ccc(-c2cnc3ncc(Cc4ccc5ncccc5c4)n3n2)cc1F,,"human, moderate hepatic impairment (Child-Pugh B), plasma","oral, 200 mg single dose",,Vz/F (geometric mean),292 L
CO[C@H]1C[C@@H]2CC[C@@H](C)[C@@](O)(O2)C(=O)C(=O)N2CCCC[C@H]2C(=O)O[C@H]([C@H](C)C[C@@H]2CC[C@@H](O)[C@H](OC)C2)CC(=O)[C@H](C)/C=C(\C)[C@@H](O)[C@@H](OC)C(=O)[C@H](C)C[C@H](C)/C=C/C=C/C=C/1C,,"human, whole blood","oral, 60 mg, mean",,AUC,3140 ng·h/mL
CCCCCCCCCCCCCCC[C@H](O)[C@@H](N)CO,,"human, phase I, plasma","intravenous, 600 mg/m^2, day 1, monotherapy",,AUC,106 µM·h
CCOc1ccc(Cc2cc([C@]34OC[C@](CO)(O3)[C@@H](O)[C@H](O)[C@H]4O)ccc2Cl)cc1,,"human, type 2 diabetes, mild renal impairment, plasma","oral, 15 mg",,AUC,1910 ng·h/mL
CN(CCC#N)C1CCN(C(=O)Cn2cc(NC(=O)c3cnn4cccnc34)c(-c3cc(Cl)ccc3OC(F)F)n2)CC1,gamma scintigraphy,human,"inhalation, 1 mg, 99mTc-labelled",relative to: emitted dose,"oropharyngeal, stomach and mouth deposition",49.1%
COC(=O)C[C@](O)(CCCC(C)(C)O)C(=O)O[C@@H]1C(OC)=C[C@]23CCCN2CCc2cc4c(cc2[C@H]13)OCO4,,"CD1 mouse, bone marrow","oral, 1 mg/kg, 24 h, below quantification limit 1.00 ng/mL",,tissue concentration,not detected
CCCC[C@H](NC(C)=O)C(=O)N[C@H]1CCC(=O)NC[C@@H](C(=O)N[C@@H](Cc2c[nH]c3ccccc23)C(N)=O)NC(=O)[C@H](CCCNC(=N)N)NC(=O)[C@@H](Cc2ccccc2)NC(=O)[C@H](Cc2c[nH]cn2)NC1=O,,"human, plasma","subcutaneous, 0.1 mg, single dose, healthy volunteers",,Vd/F,35.1 L
Cc1cc(C(=O)NC(C)(C)COc2cccc3c2C(N)=NS(=O)(=O)N3)cc(C)n1,,"male Sprague-Dawley rat, plasma","oral, 100 mg/kg, single dose",,bioavailability,0.19%
Cc1cccc(C)c1N(CC(=O)Nc1ccc(-c2ncon2)cc1)C(=O)C1CCS(=O)(=O)CC1,radio-HPLC,human,"oral, 200 mg, 0.5 to 12 h",,share of plasma radioactivity,~80%
CC(=O)N[C@@H](Cc1ccccc1)C(=O)N[C@H]1CCCNC(=O)[C@H](CCCNC(=N)N)NC(=O)[C@H](Cc2c[nH]c3ccccc23)NC(=O)[C@@H](CC2CCCCC2)NC(=O)[C@@H]2CCCN2C1=O,,"C57BL/6J mice, spinal cord","intraperitoneal, 1 mg/kg",,elimination half-life,47.7 min
CN1CCN(c2ccc3nc(-c4c(N)c5c(F)cccc5[nH]c4=O)[nH]c3c2)CC1,,"human, plasma","oral, dose not given, normalised to 200 mg dose",,AUC(0-24 h),3860 ± 2180 ng·h/mL
CCCC(CCC)C(=O)O,"regression tree, item: hearing loss","human, plasma","intravenous, dose not given",,AUCinf breakpoint,> 3870 µg·h/mL
CS(=O)(=O)c1ccc(-c2cnc(N)c(-c3ccc(C(F)(F)F)nc3)c2)cc1,,"pregnant female Sprague-Dawley rat, plasma","oral, 3 mg/kg/day, gestation day 17",,AUC(0-t),13200 ng·h/mL
CC[C@H]1OC(=O)[C@H](C)[C@@H](O[C@H]2C[C@@](C)(OC)[C@@H](O)[C@H](C)O2)[C@H](C)[C@@H](O[C@@H]2O[C@H](C)C[C@H](N(C)C)[C@H]2O)[C@](C)(O)C[C@@H](C)C(=O)[C@H](C)[C@@H](O)[C@]1(C)O,mitochondrial swelling,BALB/cByJ female mouse liver mitochondria,"30 min, together with: succinate + rotenone",relative to: CaCl2 maximal swelling,EC20,> 400 µM
CC[C@H](C)[C@H](NC(=O)[C@H](Cc1ccccc1)NC(=O)[C@H](CCC(=O)O)NC(=O)[C@H](CCCCNC(=O)COCCOCCNC(=O)COCCOCCNC(=O)CC[C@H](NC(=O)CCCCCCCCCCCCCCCCC(=O)O)C(=O)O)NC(=O)[C@H](C)NC(=O)[C@H](C)NC(=O)[C@H](CCC(N)=O)NC(=O)CNC(=O)[C@H](CCC(=O)O)NC(=O)[C@H](CC(C)C)NC(=O)[C@H](Cc1ccc(O)cc1)NC(=O)[C@H](CO)NC(=O)[C@H](CO)NC(=O)[C@@H](NC(=O)[C@H](CC(=O)O)NC(=O)[C@H](CO)NC(=O)[C@@H](NC(=O)[C@H](Cc1ccccc1)NC(=O)[C@@H](NC(=O)CNC(=O)[C@H](CCC(=O)O)NC(=O)C(C)(C)NC(=O)[C@@H](N)Cc1cnc[nH]1)[C@@H](C)O)[C@@H](C)O)C(C)C)C(=O)N[C@@H](C)C(=O)N[C@@H](Cc1c[nH]c2ccccc12)C(=O)N[C@@H](CC(C)C)C(=O)N[C@H](C(=O)N[C@@H](CCCNC(=N)N)C(=O)NCC(=O)N[C@@H](CCCNC(=N)N)C(=O)NCC(=O)O)C(C)C,,"healthy male Caucasian subjects, plasma","subcutaneous, 1.0 mg, steady state, once weekly, geometric mean",,AUC(0-168 h),7.49 µM·h
C=CC(=O)Nc1cc(Nc2nccc(-c3cn(C)c4ccccc34)n2)c(OC)cc1N(C)CCN(C)C,,"Sprague-Dawley rat, male, plasma","oral, 10 mg/kg",,apparent volume of distribution,112 ± 24.3 L/kg
CC[C@H](C)[C@H](NC(=O)[C@H](Cc1ccc(O)cc1)NC(=O)[C@@H](NC(=O)[C@H](CC(N)=O)NC(=O)[C@H](C)NC(=O)[C@H](CCCNC(=N)N)NC(=O)[C@H](CCCNC(=N)N)NC(=O)[C@H](CC(N)=O)NC(=O)[C@H](CCCNC(=N)N)NC(=O)[C@H](CCCNC(=N)N)NC(=O)[C@H](C)NC(=O)[C@@H](NC(=O)[C@H](CO)NC(=O)[C@@H](NC(=O)[C@@H](NC(=O)[C@H](CS)NC(=O)[C@H](CCCCN)NC(=O)[C@@H](N)CCCNC(=N)N)C(C)C)[C@@H](C)CC)C(C)C)[C@@H](C)CC)C(=O)N[C@@H](CC(C)C)C(=O)N[C@@H](CS)C(=O)N[C@@H](CCCNC(=N)N)C(=O)O,LC-MS,PBS,0.1 mg/mL,,single disulfide form,38%
CC(C)(C)NC(=O)[C@@H]1C[C@@H]2CCCC[C@@H]2CN1C[C@@H](O)[C@H](Cc1ccccc1)NC(=O)[C@H](CC(N)=O)NC(=O)c1ccc2ccccc2n1,"cytochrome c release, ELISA",BALB/cByJ female mouse liver mitochondria,30 min,relative to: alamethicin maximal release,EC20,> 400 µM
O=c1c(O)c(-c2ccc(O)cc2)oc2cc(O)cc(O)c12,item: kaempferol 3- and 7-glucuronides,"Bcrp1 knockout FVB mice, intestinal S9 fraction","1.25 µM, 20 min, pH 7.4",relative to: wild-type mice,glucuronidation rate decrease,~55%
C1CCC(C(CC2CCCCN2)C2CCCCC2)CC1 (stereo not drawn),mitochondrial swelling,BALB/cByJ female mouse liver mitochondria,"30 min, together with: succinate + rotenone",relative to: CaCl2 maximal swelling,EC20,14.8 µM
liraglutide,equilibrium dialysis,human plasma,"10 nM, pH 7.4",,bound fraction,99.9%
COC(=O)c1ccc(O)cc1,mitochondrial swelling,BALB/cByJ female mouse liver mitochondria,"30 min, together with: succinate + rotenone",relative to: CaCl2 maximal swelling,EC20,> 200 µM
C=CC(=O)N1CCC(CNc2ncnc(N)c2-c2ccc(Oc3ccccc3)cc2)CC1,,"human, plasma","oral, 100 mg single dose, geometric mean",,Vz/F,850 L
CCOC(=O)CN[C@@H](C(=O)N1CC[C@H]1C(=O)NCc1ccc(/C(N)=N\O)cc1)C1CCCCC1,mitochondrial swelling,BALB/cByJ female mouse liver mitochondria,"30 min, together with: succinate + rotenone",relative to: CaCl2 maximal swelling,EC20,> 400 µM
CNC(=O)c1cc(Oc2ccc(NC(=O)Nc3ccc(Cl)c(C(F)(F)F)c3)cc2)ccn1,LC-MS/MS,"nude mouse subcutaneous tumour model, tumour tissue","intratumoral, 2 mg/kg, PDC 5 miR-3609",,t1/2,2640 ± 374 min
COc1cc(/C=C/C(=O)CC(=O)/C=C/c2ccc(O)c(OC)c2)ccc1O,mitochondrial swelling,BALB/cByJ female mouse liver mitochondria,"30 min, together with: succinate + rotenone",relative to: CaCl2 maximal swelling,EC20,> 200 µM
CS(=O)(=O)n1cc2c(n1)CN([C@H]1CO[C@H](c3cc(F)ccc3F)[C@@H](N)C1)C2,,"healthy Japanese men, plasma","oral, 1 mg once weekly, day 1",,Ctrough,3.68 nM
